Measured values pooled from the literature.
Numbered parts are unrelated; each lists some results of a single study.

Study 1
Target: RING finger protein unkempt homolog, zinc fingers 1-6, SBP tag (UNK, Homo sapiens, UniProt Q9C0B0, residues 30-357)
Sequence of UniProt Q9C0B0 (30-357, looked up): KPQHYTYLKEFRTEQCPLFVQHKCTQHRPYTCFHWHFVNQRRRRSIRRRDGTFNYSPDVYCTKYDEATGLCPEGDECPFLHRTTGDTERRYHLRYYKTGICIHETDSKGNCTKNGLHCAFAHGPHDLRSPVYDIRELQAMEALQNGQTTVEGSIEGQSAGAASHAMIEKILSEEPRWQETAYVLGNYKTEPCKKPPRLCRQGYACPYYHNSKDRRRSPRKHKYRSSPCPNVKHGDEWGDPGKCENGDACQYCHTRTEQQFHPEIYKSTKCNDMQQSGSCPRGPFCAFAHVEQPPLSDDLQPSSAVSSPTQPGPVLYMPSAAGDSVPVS
Method: RNA Bind-n-Seq
Molecule type: RNA
Matrix: in vitro
Concentration: 100 nM
Notes: RNA with constant flanks, vertebrate orthologous sites, ends assumed
Reference: input RNA pool
Reading: higher = stronger binding
Measurement: bound/input enrichment
All sequences stand within: GGGAGUUCUACAGUCCGACGAUC … CAACAGAGGAUUGAGCAUCA
UUCACUACCUGACUAGAGUCGAGGUUACAGAGUUCGAGGACAUCAAAUCAGGUUACAGAAUAGAUUUUUAGACAAAUUUCUUGCUUGGUUCUAAAUUUAAUUUACAAAAAGGAAGACUGU: 0.573 ratio
CACUAAAGUUAAUCAGCUGUAAUCUGAUGAAGUGUAACAUUGUGUAGCUUUUGUAUAAACACAUGAAUUGGAAAUCGUCCAAAUAUUGAGCUAUUUUCUUGCUUUAAAGACGCUGAUGUG: 0.289 ratio
UCCAGGGGCUGGUAGAGUAGGUCCUGUGCCCCUGAGAGUGUCUUUCUUUGUUUUAUUGUCCUCGGGGGGGGGGGGGGGUGCACACCGACCCUGAGGCAUGAGCUUUGUGGUUCAUCUCGU: 0.706 ratio
UACUGUUGUUAAGCACUGUUCCAGACCGUGUCUGAUUUUAGUGUAACCUAGGAGAUUUUAUAGUUUUAUUUUAAUGGAAUCCUGCCUGACGCAGAGCAGUGGGGAGAGCAGUGUCUUCUG: 2.7 ratio
UAUAAUUAUGAAAAUCUAAAGGAUUUUUAAUGUUUAAUUUCCCCCAGCAUCUAUAUUAAGAUCUCUUUUUCCAGGCAGAUCAUUCAGAGUGUGCGAGUGUGUGUGCACAUGUUACAAAGA: 0.465 ratio
UUUUUAAAUUUUUUUUUAUUUAAUUUUUUUCCUUUCAGGGGUAAAGUUUGCUUUACCAAAUAGUGAUUGUAACAAAUUGAUCUGUUUUGGAUGUUGCUAUAGUGACAUGCAGUUCUAUAU: 0.609 ratio
CUCCCCCUUACCCAUAAAAUAGAACUUUUUAAAAUUGUGUUGCCACCACUGUUUAAAAAAACAAAAAAACAAAAAACAAAAAAAAAACAAAACUUAGCAAUAGUAGAAUAAGAUGCGAAU: 2.64 ratio
GGUCAUGUAUAGCAAUUAGAAUGGGUUGCCCUUCUACUUCUCCCAAGAAGAAAUCCCAUAUAGAUUCCUUUCAUGUCAGAUUAUACUGUUCUGAUUUUAUUUUCUAUUAUUUUUACAUAU: 0.573 ratio
AUCCCUCAGUGACAGUAUGCCAUCUGUAGCAGAUUCCCACUCUAGUCAUUUUUCUGAAUUUAGUUGUUCUGACCUAGAAAGCAUGAAGACUUCUUGUAGCCAUGGUUCAACUGAUUAUCA: 3.23 ratio
GCACAGAAUGUUUUAACCUGUUUGAAGAUAACACGUGAGCUUUGCUUUGGAGCAUUUAAAUAGGCUACUUUUCUAUCGCGACUGCUCAAAGAAUUUGAAGUUAUGUGUUAGUUUUGCUCU: 0.285 ratio
UCAUAAUCACUAAUUGUAAUCUGAAGAAAGUGUAACAUUGUGUAGCCUUUUUGUAUAAAAUAGACAAAUAGAAAUGGUCCAAUUAGUUUCCUUUUUAAUAUGCUGAAAAUAAGCAGGAAG: 0.832 ratio

Study 2
Target: Sal-like protein 4, full length isoform B (SALL4, Homo sapiens, UniProt Q9UJQ4-2, residues 1-616)
Method: universal PBM
Molecule type: double-stranded DNA, one strand shown
Matrix: in vitro
Concentration: not given
Notes: 8-mer, flanks averaged, mean of replicates
Reading: higher = stronger binding
Measurement: E-score
GATCGGCC: -0.183
ACGGCATA: 0.0999
GGTCATAC: 0.0324
ACCACATA: 0.195
AGGATCTA: -0.0284
CACTTCCC: -0.22
CATCGTGA: -0.152
GAACCTTA: -0.0118
TGATTAAA: 0.302
AGTATAGC: 0.0861
AGGGACAT: 0.0293
GAGAATAA: 0.202
CAAAGGTG: -0.0319
CAGAGTGA: -0.224
AACGTCCC: -0.106
CAACCTAG: -0.0439
AGGACGGA: -0.2
GTATGTGA: 0.208
CACGGACC: -0.28
GAATGTTA: 0.125
CAGTTCTC: -0.0887
AAGACCTC: -0.183
GGACAAGA: -0.081

Study 3
Target: RNA binding protein fox-1 homolog 2, RRM domain, GST-SBP tag (RBFOX2, Homo sapiens, UniProt O43251-10, residues 100-194)
Method: RNA Bind-n-Seq
Molecule type: RNA
Matrix: in vitro
Concentration: 365 nM
Notes: natural RNA segment, single round, ends assumed
Reference: no-protein control
Reading: higher = stronger binding
Measurement: RBNS enrichment (R)
All sequences stand within: GGGAGUUCUACAGUCCGACGAUC … UGGAAUUCUCGGGUGCCAA
Target sequence (chain): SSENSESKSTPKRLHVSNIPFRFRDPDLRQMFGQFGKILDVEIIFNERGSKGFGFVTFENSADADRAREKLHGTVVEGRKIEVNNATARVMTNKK
UGAAAUCUUGCAUCUUCAAGAAAAGAUUAAAAUAGUAAAAGUAUCUUAAAUUUCCUGAUAUUUAUGUACAUAUAGUAAGAUAACUGAUAAGUCUUAGAUGUUUGAGUGAA: 0.466
UCAGAUCACCCACAAUAAAGCGCAGCCCUUGCUGCAGCACCCGCUGCCAUCCUUGUCUCUGCUUCCUUGGGGAGGGCUGCAGGGUGGCACAGCAGCCUGGCGUCAGUGAC: 0.72
CUGGCUUCUUCCAGAGACAUGGGCUGUGUUAUUGGAGUCGUGGGCCUCUUCACUUCCCCGGCACCCUUGUAUCCCCACAGCAGUACUGAGGAGCACGGACGCCUCUGUGA: 0.859
GUUCCCAGGAGAACUGGGAGGCACAGGAUUCCCAGCACCCUUGCUGCCUCAUUGGGGAAGUUGGCCAGCUGGACUUCAGAGAGCUAAGACACAGCAUUUUCAAAGAUAGC: 1.02
AAAUUCGCAUGUUUAAUGUGAACUCUCCCCUCCCCAUCUGUGUUCUAACUUAUUUAUAAAAAGAUGAUCGCUGUAUUUUGAGUUUCAGCUGGAAACUUCUGUAAGGGGCA: 3.75
GUGCUGAUGUCCAAGACUUAACCAGAAGGGAUCUGGGAGGGCCUAGAGGUGGGCUCAGAAUUCUAGUGCUAGGUAACACCCUAGGACACACCACAGCCCUAACACACCAG: 0.83
GGUUGUGCAAACAUCACGGGGCCCUACCCUGAUCCCCAAGGCCCCACCAUCACUGCCCAAGGGGGUAAAAAAGAGAAAAAGCCCUCAAAAACAGUUCUUACUCCUGUGUU: 0.516
GUGAGCUGCCAGCUGCCCCUCUCCACCAGGGUACCCUGUCUUGGUGGUUAGGGGCCACUUUUCCUUUGAGGCUCUAGUGGAGGUGGAUGUCCUUCUCUGCCAGGCUUGGC: 0.188
GCCAUUCUUGAGUUUGCCAGCUCCAUCCCAGGCUCCAAGUGCUGUGACUGGUGACUCUCAGGCAGGCAUGACAAAUUGCUGGCCUCCAUUCUUGGCCUUCCUAAUCACUC: 0.57
CUUUGCACUGAAGGAGGACUUGGACUGACCUCCGACUUACAUAGUUUGUUAAGAGCUGUCUUUAGCAUUCUGCUGGAAGAAUUUUGGGAGCAACAGACUGGGACAGAGCC: 0.45
AUCUCUAUACAGGCAGUUAUUUUAUUUUUAGACUGUGUUAGAAUGUCUGGACUUAGCUUCAAACUCUAUGGAUUCGGCCUUGGUAGGGAAUUGUACCACCACUUGGUUUG: 0.809
GAUGUUCAGUGGUCGUUUUUCAUUUUAAGUAAUUUUUGUUUUGGCAUUUUUUUGUGUGAAGUAAAUUAAUCAACUAGAGAGGUGCAAAACGUUCUCAGUUGAUAUCUGAG: 0.859

Study 4
Target: Histone acetyltransferase KAT6A, winged helix 1, GST fusion (KAT6A, Homo sapiens, UniProt Q92794, residues 1-85)
Method: protein binding microarray
Molecule type: double-stranded DNA, one strand shown
Matrix: in vitro
Concentration: not given
Notes: 8-mer, flanks averaged, mean of 2 arrays, mostly near background
Reference: not given
Reading: higher = stronger binding
Measurement: E-score
Target sequence (chain): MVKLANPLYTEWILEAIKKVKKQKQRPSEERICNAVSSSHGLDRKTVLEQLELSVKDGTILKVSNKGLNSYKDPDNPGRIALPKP
ATTCGAGG: -0.151
AATTCGCG: 0.232
AGAGGTAG: -0.266
AGGATGCG: 0.0682
ACGATCCC: 0.0259
ACCTCCTA: -0.0746
GGGTTTCA: 0.15
CTCCGTAC: 0.248
ACGTACAG: -0.196
AATGGGGA: -0.178
ACTCATCT: -0.293
CCGCGACG: 0.424
ATAATGTA: 0.0111
TCGTGTAA: -0.0532
GATACGAA: -0.157
AGCCAGTC: -0.155
CATTAAGA: -0.164
ACAAAGGT: -0.119
AACATTAA: 0.0371
AACCGATC: 0.0575
AAGCTAAG: -0.123
CATAAACC: -0.014
CCATCTAG: -0.24
CACTTGCC: -0.0862
ACTGCTCA: -0.216

A few entries again (study 4):
TCGTGTAA: -0.0532
ACGTACAG: -0.196
ACTCATCT: -0.293
GGGTTTCA: 0.15
AAGCTAAG: -0.123
CACTTGCC: -0.0862
AACCGATC: 0.0575
ATAATGTA: 0.0111
